Published values collected from several papers.
Compare with care: the assays were run in different laboratories. ± gives the spread as reported.
PLEKHA5 PH domain: Pleckstrin homology domain-containing family A member 5, PH domain (PLEKHA5, Homo sapiens, UniProt Q9HAU0)
Chain of UniProt Q9HAU0 (whole entry, looked up): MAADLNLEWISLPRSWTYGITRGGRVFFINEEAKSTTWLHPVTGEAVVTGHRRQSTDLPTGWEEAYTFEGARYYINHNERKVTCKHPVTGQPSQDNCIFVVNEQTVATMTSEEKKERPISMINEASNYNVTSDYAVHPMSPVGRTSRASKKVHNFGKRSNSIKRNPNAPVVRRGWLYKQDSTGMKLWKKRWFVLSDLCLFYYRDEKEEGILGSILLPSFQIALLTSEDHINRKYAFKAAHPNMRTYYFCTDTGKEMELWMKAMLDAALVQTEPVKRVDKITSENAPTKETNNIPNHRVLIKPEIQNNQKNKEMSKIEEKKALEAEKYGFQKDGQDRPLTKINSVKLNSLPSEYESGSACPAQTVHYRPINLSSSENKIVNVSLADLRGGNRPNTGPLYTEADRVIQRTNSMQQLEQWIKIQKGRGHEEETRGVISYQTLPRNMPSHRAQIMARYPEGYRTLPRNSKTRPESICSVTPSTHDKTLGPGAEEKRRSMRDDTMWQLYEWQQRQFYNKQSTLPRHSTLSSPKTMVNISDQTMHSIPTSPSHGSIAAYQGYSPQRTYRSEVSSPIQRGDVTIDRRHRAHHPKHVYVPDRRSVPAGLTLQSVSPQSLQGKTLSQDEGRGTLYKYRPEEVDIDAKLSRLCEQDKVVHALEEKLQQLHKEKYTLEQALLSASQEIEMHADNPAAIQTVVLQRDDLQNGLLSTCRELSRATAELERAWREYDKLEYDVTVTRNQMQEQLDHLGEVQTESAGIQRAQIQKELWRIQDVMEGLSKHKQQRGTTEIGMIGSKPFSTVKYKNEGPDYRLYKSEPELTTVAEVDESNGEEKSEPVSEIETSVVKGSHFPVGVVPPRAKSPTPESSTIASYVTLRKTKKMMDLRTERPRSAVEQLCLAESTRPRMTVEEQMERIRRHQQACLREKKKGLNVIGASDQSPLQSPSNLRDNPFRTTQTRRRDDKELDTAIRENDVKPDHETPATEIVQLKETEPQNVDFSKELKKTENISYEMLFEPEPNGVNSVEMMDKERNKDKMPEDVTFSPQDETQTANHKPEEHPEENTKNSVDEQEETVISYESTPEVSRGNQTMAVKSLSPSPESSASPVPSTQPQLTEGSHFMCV
Alpha-carbonic anhydrase: Alpha-carbonic anhydrase (Enterococcus faecium, UniProt Q3XYE8)
Chain of UniProt P34972 (whole entry, looked up): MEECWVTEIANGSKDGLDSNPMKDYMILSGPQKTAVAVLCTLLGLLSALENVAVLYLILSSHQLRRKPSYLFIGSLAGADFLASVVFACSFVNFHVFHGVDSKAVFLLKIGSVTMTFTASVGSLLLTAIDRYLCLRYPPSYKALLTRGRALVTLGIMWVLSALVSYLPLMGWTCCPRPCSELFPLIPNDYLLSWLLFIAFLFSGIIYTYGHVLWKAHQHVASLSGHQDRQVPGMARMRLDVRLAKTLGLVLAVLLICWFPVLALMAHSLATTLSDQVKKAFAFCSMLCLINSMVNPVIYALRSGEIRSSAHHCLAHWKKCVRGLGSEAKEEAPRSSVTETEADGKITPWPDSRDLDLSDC
Chain of UniProt P05183 (whole entry, looked up): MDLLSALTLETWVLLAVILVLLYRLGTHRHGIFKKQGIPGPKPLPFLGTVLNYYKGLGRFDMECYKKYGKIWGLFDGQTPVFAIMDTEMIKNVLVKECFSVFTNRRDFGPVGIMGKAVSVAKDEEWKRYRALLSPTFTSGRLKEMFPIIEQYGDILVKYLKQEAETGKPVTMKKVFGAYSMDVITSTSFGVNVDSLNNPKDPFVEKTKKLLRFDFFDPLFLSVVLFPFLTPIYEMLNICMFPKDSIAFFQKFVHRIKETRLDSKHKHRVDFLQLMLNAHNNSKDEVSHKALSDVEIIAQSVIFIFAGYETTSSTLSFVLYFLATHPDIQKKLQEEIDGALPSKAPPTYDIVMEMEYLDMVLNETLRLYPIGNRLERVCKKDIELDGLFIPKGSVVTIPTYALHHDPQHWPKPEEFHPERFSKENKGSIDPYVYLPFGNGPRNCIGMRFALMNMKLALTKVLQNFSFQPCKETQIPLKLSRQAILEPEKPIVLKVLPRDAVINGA
Chain of UniProt P52790 (whole entry, unmodified, looked up): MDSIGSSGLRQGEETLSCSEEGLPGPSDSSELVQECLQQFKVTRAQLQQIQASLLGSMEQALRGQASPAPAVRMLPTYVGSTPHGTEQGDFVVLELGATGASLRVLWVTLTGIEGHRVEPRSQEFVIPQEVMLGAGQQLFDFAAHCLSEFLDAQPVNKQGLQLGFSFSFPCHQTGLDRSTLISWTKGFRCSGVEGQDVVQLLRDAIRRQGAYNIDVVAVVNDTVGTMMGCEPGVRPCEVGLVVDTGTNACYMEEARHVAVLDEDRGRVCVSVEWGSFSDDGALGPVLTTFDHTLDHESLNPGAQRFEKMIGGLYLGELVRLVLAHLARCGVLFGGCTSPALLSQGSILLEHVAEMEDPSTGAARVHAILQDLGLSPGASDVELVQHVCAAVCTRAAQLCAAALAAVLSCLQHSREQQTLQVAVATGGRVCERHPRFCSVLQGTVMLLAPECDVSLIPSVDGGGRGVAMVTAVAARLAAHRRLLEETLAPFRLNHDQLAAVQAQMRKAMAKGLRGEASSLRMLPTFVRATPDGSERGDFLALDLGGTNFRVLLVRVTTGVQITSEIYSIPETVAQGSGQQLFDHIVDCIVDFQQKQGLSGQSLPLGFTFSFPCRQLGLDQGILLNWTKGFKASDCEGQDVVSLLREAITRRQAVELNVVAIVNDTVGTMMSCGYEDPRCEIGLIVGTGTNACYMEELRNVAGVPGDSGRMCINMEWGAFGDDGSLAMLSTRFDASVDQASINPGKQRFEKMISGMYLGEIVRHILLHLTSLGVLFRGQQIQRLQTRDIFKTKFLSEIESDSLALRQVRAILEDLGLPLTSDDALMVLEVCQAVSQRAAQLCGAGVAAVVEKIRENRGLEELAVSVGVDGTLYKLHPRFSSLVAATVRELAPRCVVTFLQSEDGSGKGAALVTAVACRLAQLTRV
Chain of UniProt P08684 (whole entry, looked up): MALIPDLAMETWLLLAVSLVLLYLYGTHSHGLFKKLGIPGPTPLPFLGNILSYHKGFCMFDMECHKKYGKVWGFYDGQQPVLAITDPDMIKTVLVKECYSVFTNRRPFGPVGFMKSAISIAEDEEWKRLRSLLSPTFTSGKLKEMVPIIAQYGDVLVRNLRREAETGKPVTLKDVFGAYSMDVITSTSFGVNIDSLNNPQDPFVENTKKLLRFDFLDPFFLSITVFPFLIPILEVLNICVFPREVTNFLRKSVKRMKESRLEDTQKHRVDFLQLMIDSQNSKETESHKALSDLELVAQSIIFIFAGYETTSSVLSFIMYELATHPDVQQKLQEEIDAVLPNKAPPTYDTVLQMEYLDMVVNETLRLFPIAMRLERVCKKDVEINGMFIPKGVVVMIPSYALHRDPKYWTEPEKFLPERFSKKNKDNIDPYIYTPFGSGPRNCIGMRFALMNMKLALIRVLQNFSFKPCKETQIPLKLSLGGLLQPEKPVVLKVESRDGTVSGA
Chain of UniProt Q70CQ1 (whole entry, looked up): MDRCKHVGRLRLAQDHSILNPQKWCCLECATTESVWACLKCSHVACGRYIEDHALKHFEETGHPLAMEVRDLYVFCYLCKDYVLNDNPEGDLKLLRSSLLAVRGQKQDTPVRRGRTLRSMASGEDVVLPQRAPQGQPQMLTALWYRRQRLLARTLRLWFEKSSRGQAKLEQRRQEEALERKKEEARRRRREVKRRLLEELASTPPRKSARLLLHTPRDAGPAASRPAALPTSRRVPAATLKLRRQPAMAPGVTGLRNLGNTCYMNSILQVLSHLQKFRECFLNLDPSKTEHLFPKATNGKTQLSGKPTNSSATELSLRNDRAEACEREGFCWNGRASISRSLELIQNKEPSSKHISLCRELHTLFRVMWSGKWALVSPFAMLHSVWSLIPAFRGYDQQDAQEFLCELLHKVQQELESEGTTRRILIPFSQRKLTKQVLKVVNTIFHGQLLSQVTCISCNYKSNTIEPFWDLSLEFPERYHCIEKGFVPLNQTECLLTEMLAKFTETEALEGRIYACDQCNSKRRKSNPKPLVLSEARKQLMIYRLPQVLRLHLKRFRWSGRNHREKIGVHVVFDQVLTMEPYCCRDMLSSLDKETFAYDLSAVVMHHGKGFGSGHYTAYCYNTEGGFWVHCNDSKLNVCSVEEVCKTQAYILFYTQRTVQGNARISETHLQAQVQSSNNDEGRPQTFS
Chain of UniProt Q53GS9 (whole entry, looked up): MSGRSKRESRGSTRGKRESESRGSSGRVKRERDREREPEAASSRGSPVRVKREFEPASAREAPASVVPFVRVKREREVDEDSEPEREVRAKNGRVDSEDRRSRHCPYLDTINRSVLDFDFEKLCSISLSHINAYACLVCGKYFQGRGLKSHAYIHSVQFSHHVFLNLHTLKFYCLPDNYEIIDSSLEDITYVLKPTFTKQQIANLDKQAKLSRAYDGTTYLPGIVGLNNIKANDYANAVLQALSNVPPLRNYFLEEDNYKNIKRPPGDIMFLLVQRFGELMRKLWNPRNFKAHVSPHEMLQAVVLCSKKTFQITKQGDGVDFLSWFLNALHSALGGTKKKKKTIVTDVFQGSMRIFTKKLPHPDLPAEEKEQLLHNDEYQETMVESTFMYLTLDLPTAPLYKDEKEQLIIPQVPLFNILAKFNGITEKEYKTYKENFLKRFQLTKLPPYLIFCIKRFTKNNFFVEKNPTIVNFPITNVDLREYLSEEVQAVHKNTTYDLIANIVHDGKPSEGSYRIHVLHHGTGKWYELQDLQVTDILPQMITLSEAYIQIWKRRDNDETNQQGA

Compound = COc1ccccc1C(=O)CC(SCc1ccc(Cl)cc1)C(=O)O (stereo not drawn); target = PLEKHA5 PH domain; test = PLEKHA5 PI(4,5)P2 binding, fluorescence polarization; setting = added: BODIPY-PI(4,5)P2 tracer; endpoint = Ki; result = 78.9 ± 5 µM
Compound = O=c1c2ccccc2nc2n1CCc1c-2[nH]c2ccccc12; target = Cytochrome P450 3A2 (Cyp3a2, Rattus norvegicus, UniProt P05183); test = enzyme activity, inhibitor; test system = Sprague-Dawley rat, male, liver microsomes; setting = 30 (unit not given), pH 7.4; endpoint = Ki; result = 17.3 µM
Compound = OC[C@H]1OC(O)[C@H](O)[C@@H](O)[C@@H]1O (stereo partly drawn); target = Hexokinase-3 (HK3, Homo sapiens, UniProt P52790, R480W); test = substrate inhibition; setting = mutant R480W, complete substrate inhibition model, added: ATP 20 mM; endpoint = Ki; result = 14000 ± 1000 µM
Compound = NS(=O)(=O)c1nnc(NC(=O)C2CC23CCCOC3)s1 (stereo not drawn); target = Alpha-carbonic anhydrase; test = CO2 hydration, inhibitor, stopped-flow kinetics; endpoint = Ki; result = 0.0573 µM
Compound = CCOc1ccc(C(=O)CC(SCc2cccc(Br)c2)C(=O)O)cc1 (stereo not drawn); target = PLEKHA5 PH domain; test = PLEKHA5 PI(4,5)P2 binding, fluorescence polarization; setting = added: BODIPY-PI(4,5)P2 tracer; endpoint = Ki; result = 12.6 ± 0.7 µM
Compound = Cc1ccc(S(=O)(=O)n2cc(/C=N/NC(=S)Nc3ccc([N+](=O)[O-])cc3)c3ccccc32)cc1; target = mushroom tyrosinase; test = inhibitor; setting = added: L-DOPA; endpoint = Ki; result = 3.42 ± 0.03 µM
Compound = O=C(O)c1ccc(Cn2ccnc2)o1; target = WDR5 (Homo sapiens, UniProt P61964); test = fluorescence polarization competition; setting = added: 10mer-Thr-FAM peptide; endpoint = Ki; result = > 5 µM
Compound = NS(=O)(=O)c1nnc(NC(=O)COC2CCC(F)(F)CC2)s1; target = Alpha-carbonic anhydrase; test = CO2 hydration, inhibitor, stopped-flow kinetics; endpoint = Ki; result = 0.0108 µM
Compound = O=c1n(CCCN2CCN(c3cccc(Cl)c3)CC2)nc2ccccn12; target = CNR2 (Homo sapiens, UniProt P34972); endpoint = Ki; result = > 10 µM
Compound = COc1ccc(C(=O)CC(SCc2ccc(Cl)cc2)C(=O)O)cc1 (stereo not drawn); target = PLEKHA5 PH domain; test = PLEKHA5 PI(4,5)P2 binding, fluorescence polarization; setting = added: BODIPY-PI(4,5)P2 tracer; endpoint = Ki; result = 54 ± 6.3 µM
Compound = NS(=O)(=O)c1nnc(NC(=O)CC2CCC(F)(F)CC2)s1; target = Alpha-carbonic anhydrase; test = CO2 hydration, inhibitor, stopped-flow kinetics; endpoint = Ki; result = 0.0086 µM
Compound = CCOc1ccc(C(=O)CC(SCc2ccc(F)cc2)C(=O)O)cc1 (stereo not drawn); target = PLEKHA5 PH domain; test = PLEKHA5 PI(4,5)P2 binding, fluorescence polarization; setting = added: BODIPY-PI(4,5)P2 tracer; endpoint = Ki; result = 52.9 ± 8.4 µM
Compound = NS(=O)(=O)c1nnc(NC(=O)CC2CC3CCC2C3)s1 (stereo not drawn); target = Alpha-carbonic anhydrase; test = CO2 hydration, inhibitor, stopped-flow kinetics; endpoint = Ki; result = 0.0289 µM
Compound = COc1ccc(F)cc1C(=O)NCc1ccc(-c2nn([C@@H](C)C(F)(F)F)c(N)c2C(N)=O)cc1; target = Cytochrome P450 3A4 (CYP3A4, Homo sapiens, UniProt P08684); test = reversible inhibitor; test system = human liver microsomes; endpoint = Ki; result = 25.2 µM
Compound = CCOc1ccc(C(=O)CC(SCc2ccc(Cl)cc2)C(=O)O)cc1 (stereo not drawn); target = PLEKHA5 PH domain; test = PLEKHA5 PI(4,5)P2 binding, fluorescence polarization; setting = added: BODIPY-PI(4,5)P2 tracer; endpoint = Ki; result = 16.5 ± 1.2 µM
Compound = COc1cc(Cl)c(S(=O)(=O)N2CCCC(C)C2)cc1Cl (stereo not drawn); target = Melanopsin (OPN4, Homo sapiens, UniProt Q9UHM6); test = radioligand binding; test system = CHO-OPN4 cell membranes; endpoint = Ki; result = 9.6e-05 µM
Compound = CCOc1ccc(C(=O)CC(SCc2ccccc2Br)C(=O)O)cc1 (stereo not drawn); target = PLEKHA5 PH domain; test = PLEKHA5 PI(4,5)P2 binding, fluorescence polarization; setting = added: BODIPY-PI(4,5)P2 tracer; endpoint = Ki; result = 19.4 ± 2.7 µM
Compound = NCCCC(=O)Nc1nnc(S(N)(=O)=O)s1; target = Alpha-carbonic anhydrase; test = CO2 hydration, inhibitor, stopped-flow kinetics; endpoint = Ki; result = 0.0492 µM
Compound = O=C(O)CCc1nc2ccccc2c2nc(Cc3ccccc3)nn12; target = Ubiquitin carboxyl-terminal hydrolase 39, ZnF-UBD domain (Homo sapiens, UniProt Q53GS9); endpoint = Kd; result = > 1000 µM
Compound = Cc1ccc(CC(=O)Nc2nnc(S(N)(=O)=O)s2)cc1; target = Alpha-carbonic anhydrase; test = CO2 hydration, inhibitor, stopped-flow kinetics; endpoint = Ki; result = 0.0694 µM
Compound = O=C(O)CCN1C(=O)c2ccccc2S1(=O)=O; target = Ubiquitin carboxyl-terminal hydrolase 49, ZnF-UBD domain (USP49, Homo sapiens, UniProt Q70CQ1); endpoint = Kd; result = > 1000 µM

A few entries again:
Compound = Cc1ccc(CC(=O)Nc2nnc(S(N)(=O)=O)s2)cc1; target = Alpha-carbonic anhydrase; test = CO2 hydration, inhibitor, stopped-flow kinetics; endpoint = Ki; result = 0.0694 µM
Compound = NS(=O)(=O)c1nnc(NC(=O)CC2CC3CCC2C3)s1 (stereo not drawn); target = Alpha-carbonic anhydrase; test = CO2 hydration, inhibitor, stopped-flow kinetics; endpoint = Ki; result = 0.0289 µM
